Measurements of several laboratories.
Numbered parts are unrelated; each lists some results of a single study. Positions count from the first letter of the parent shown.

Series 1 — technique: protein binding microarray; form: double-stranded DNA, one strand shown; medium: in vitro; concentration: not given; baseline: not given; direction: higher = stronger binding
Target: Histone acetyltransferase KAT6A, winged helix 2, GST fusion (KAT6A, Homo sapiens, UniProt Q92794, residues 85-181)
Setting: 8-mer, flanks averaged, mean of 2 arrays, mostly near background
Construct (chain): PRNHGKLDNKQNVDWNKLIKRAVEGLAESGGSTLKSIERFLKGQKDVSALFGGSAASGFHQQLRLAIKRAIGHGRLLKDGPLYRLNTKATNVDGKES
Sequence	E-score
AATGTTAC	-0.162
CGGCCAAA	0.201
AGTTTTAC	0.0205
CAAGAAGA	0.0925
TCTGGTCA	-0.0016
TAAGCACA	0.101
CCACTTGC	-0.0232
GGGTATCA	0.052

Series 2 — technique: RNA Bind-n-Seq; form: RNA; medium: in vitro; concentration: not given; baseline: input RNA pool; direction: higher = stronger binding
Target: RING finger protein unkempt homolog, zinc fingers 1-6, GST-SBP tag (UNK, Homo sapiens, UniProt Q9C0B0, residues 30-357)
Sequence of UniProt Q9C0B0 (30-357, looked up): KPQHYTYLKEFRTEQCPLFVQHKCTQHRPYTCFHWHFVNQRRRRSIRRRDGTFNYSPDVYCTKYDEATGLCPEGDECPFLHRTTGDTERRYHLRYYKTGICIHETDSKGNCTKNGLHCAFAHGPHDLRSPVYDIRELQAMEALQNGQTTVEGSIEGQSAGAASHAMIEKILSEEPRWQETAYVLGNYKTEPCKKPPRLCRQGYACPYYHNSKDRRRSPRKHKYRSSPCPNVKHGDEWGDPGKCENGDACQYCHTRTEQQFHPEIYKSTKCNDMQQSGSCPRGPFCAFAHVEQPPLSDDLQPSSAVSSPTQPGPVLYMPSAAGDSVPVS
Setting: RNA with constant flanks, human-mouse chimeric sites, ends assumed
Sequence	bound/input enrichment [ratio]
GGGAGUUCUACAGUCCGACGAUCUCAGUCUUUUUGUACAGCUUUGUAAAUUCUUAACAUUUUUAUAUUGCACAUUUUAUGUUGUUUGGGUAAUUUGGUUCAUUAAGUACAUAGCUAAGGUAAUGAACAUCUUUUUCAGUAAUUCAACAGAGGAUUGAGCAUCA	1.05
GGGAGUUCUACAGUCCGACGAUCAUAGAUGAAAUUGAUGUGGACCAGGAAGGAAUUGCAGAAAUGAUCCUGGAUGAAAAUGCUAUUGCUCAGGUCCCACGCCCUGGCACAUCUUUGAAGCUCCCUGGAACUAACCAAACAGGACAACAGAGGAUUGAGCAUCA	0.293
GGGAGUUCUACAGUCCGACGAUCGUAGCUGGGACUACAGAAAUGCUGGUAGUGCUCCGGCCUUGCUGAUGACUUCUGAUGUCCCAGCAAAUGUUGGCAUUGUUGACUGCUGAGAAGAUACUUCUGAGGACAUACAGCAGUGGUCAACAGAGGAUUGAGCAUCA	0.136

Series 3 — target: CCNA1, cyclin fold, Cln2 fusion (human); technique: yeast growth competition, sequencing; medium: yeast; setting: weak parent motif; baseline: not given; direction: higher = stronger binding
Starting sequence: PKN2 docking peptide (human); VSAVQKLDFSDTM
Change	normalised enrichment score
VSAVQKLDFSATM [D11A]	0.268
CSAVQKLDFSDTM [V1C]	0.151
VSRVQKLDFSDTM [A3R]	0.162
VSAVQKLDESDTM [F9E]	0.258
VSAVQKLDFSWTM [D11W]	0.357

Single results of other studies
Substance	target	assay	system	setting	how to read	measurement	value
PhoQ, residues 284 288 289 292 302 303 WVSSAF	PhoP, residues 12 14 15 18 19 LHSVW (Escherichia coli, UniProt P23836)	Sort-seq, refers to: YFP reporter	E. coli	PhoQ-PhoP variant library, together with: 10 µM Mg2+	baseline: high Mg2+ state, higher = stronger signaling	fold induction	1.93

A few entries again (series 1):
Sequence	E-score
AGTTTTAC	0.0205
AATGTTAC	-0.162
GGGTATCA	0.052
